{"data": "Measured values gathered from unrelated publications", "note": "Compare with care: the assays were run in different laboratories. “And” joins repeats or separate records; there may be more than shown. ± marks the error that the study gave."}
{"Structure (SMILES)": "CO[C@@H]1[C@H](O)[C@@H](COP(=O)(O)OP(=O)([S-])OP(=O)(S)OP(=O)(O)OC[C@H]2O[C@@H](n3cnc4c(=O)[nH]c(N)nc43)[C@H](O)[C@@H]2O)O[C@H]1n1c[n+](C)c2c(O)nc(N)nc21 (mixture of isomers)", "target": "eIF4E (mouse)", "assay": "fluorescence titration", "conditions": "20 °C", "endpoint": "binding free energy", "result": "-11.67 ± 0.08 kcal/mol"}
{"Structure (SMILES)": "CCCCOc1nc(N)c2[nH]c(=O)n(CCCN(CCCN3CCOCC3)Cc3cccc(CC(=O)OC)c3)c2n1", "target": "other human TLRs", "test system": "human cells", "conditions": "up to 10 µM", "endpoint": "activity", "result": "inactive"}
{"Structure (SMILES)": "CC1OC(OC2C(c3c(O)cc(O)c4c(=O)cc(-c5ccc(O)cc5)oc34)OC(CO)C(O)C2O)C(O)C(O)C1O (stereo not drawn)", "target": "arginine-methylglyoxal glycation", "assay": "AGE formation, inhibitor", "endpoint": "IC50", "result": "40.2 ± 0.45 µM"}
{"Structure (SMILES)": "CC(C)[C@H](NC(=O)[C@@H]1CCCN1C(=O)[C@H](C)NC(=O)[C@H](CO)NC(=O)[C@H](C)NC(=O)[C@H](CC(N)=O)NC(=O)[C@H](CCC(=O)O)NC(=O)[C@@H](NC(=O)[C@H](CC(=O)O)NC(=O)[C@H](CCCCN)NC(=O)[C@H](C)NC(=O)[C@H](CCC(N)=O)NC(=O)[C@H](Cc1ccccc1)NC(=O)[C@H](C)NC(=O)[C@H](Cc1c[nH]c2ccccc12)NC(=O)[C@H](C)NC(=O)[C@@H](NC(=O)CN)C(C)C)C(C)C)C(=O)O", "target": "PCY1 peptide cyclase, Saponaria vaccaria", "assay": "substrate, LC-MS", "conditions": "200 µM, pH 8.5, 30 °C, with: PCY1 3.6 µM", "endpoint": "time to complete macrocyclization", "result": "~30 min"}
{"Structure (SMILES)": "Nc1nc2c(CN[C@H](CO)CCP(=O)(O)O)c[nH]c2c(=O)[nH]1", "target": "HGXPRT Plasmodium falciparum", "assay": "inhibitor", "how to read": "relative to: Ki T. cruzi HGXPRT over Ki P. falciparum HGXPRT", "endpoint": "selectivity ratio", "result": "1200 fold"}
{"Structure (SMILES)": "Cc1sc2ncn(CC(=O)N3CCCC3)c(=O)c2c1-c1cccc(Br)c1", "target": "NMDA receptor, mouse", "assay": "single-channel current, outside-out patch", "test system": "cortical neurons", "conditions": "concentration not given, with: Ca2+ 0.5 mM", "endpoint": "amplitude 2 area", "result": "16%"}
{"Structure (SMILES)": "COc1ccccc1CCN1CNc2c(c(=O)[nH]c(=O)n2-c2cccc(Cl)c2C)C1", "target": "P2X7 (giant panda) Y298A", "assay": "ion current, whole-cell patch clamp", "conditions": "1 µM", "how to read": "relative to: wild type", "endpoint": "inhibition", "result": "decreased"}
{"Structure (SMILES)": "O=c1c2ccccc2oc2cc(OCc3cn(Cc4ccc(Br)cc4)nn3)cc(O)c12", "target": "Bax (human)", "assay": "western blot", "test system": "A549", "conditions": "17 and 34 µM, 12 h", "endpoint": "protein level", "result": "increased"}
{"Structure (SMILES)": "OB(O)c1sccc1/C=N/OCc1ccccc1", "target": "human pancreatic chymotrypsin", "assay": "enzyme activity, inhibitor", "conditions": "100 µM", "endpoint": "inhibition", "result": "inactive"}
{"Structure (SMILES)": "Cc1cc(N)c2cc(NC(=O)CCC(=O)Nc3ccc4nc(C)cc(N)c4c3)ccc2n1", "target": "unfractionated heparin", "assay": "heparin neutralization, factor Xa chromogenic", "conditions": "with: heparin 0.2 IU/mL, antithrombin III", "endpoint": "IC50", "result": "4.6 ± 0.07 µM"}
{"Structure (SMILES)": "CC[C@H](C)[C@@H]1NC(=O)[C@H](Cc2ccc(O)cc2)NC(=O)[C@@H](N)CSSC[C@@H](C(=O)N2CCC[C@H]2C(=O)N2CCC[C@H]2C(=O)NCC(N)=O)NC(=O)[C@H](CC(N)=O)NC(=O)[C@H](CCC(N)=O)NC1=O", "target": "vasopressin V1a receptor, Callithrix jacchus", "assay": "calcium mobilization, agonist, FLIPR Fluo-3", "test system": "CHO transfected with receptor", "endpoint": "EC50", "result": "0.00339 µM"}
{"Structure (SMILES)": "O=C([O-])CN1CCN(CC(=O)[O-])CCN(C(CCC(=O)NC(Cc2c[nH]c3ccc(O)cc23)C(=O)NCCc2c[nH]c3ccc(O)cc23)C(=O)O)CCN(CC(=O)[O-])CC1.[Gd+3] (stereo not drawn)", "target": "myeloperoxidase", "conditions": "0.5 mM, 3 h, 40 °C, with: glucose oxidase and glucose", "how to read": "relative to: MPO-Gd", "endpoint": "R1 ratio change", "result": "> 3 fold"}
{"Structure (SMILES)": "Nc1nc2ccc(C(F)(F)F)cc2s1", "target": "MeAIB/glutamine transporter, rat", "assay": "MeAIB uptake", "test system": "hippocampal neurons, rat", "conditions": "20 µM, with: [14C]MeAIB 23.4 µM", "endpoint": "inhibition", "result": "> 90%"}
{"Structure (SMILES)": "CCN(CC)c1ccc(/C=C/C(=O)C(c2ccccc2)c2ccccc2)cc1", "target": "TNF-alpha (mouse)", "assay": "ELISA", "test system": "RAW264.7", "conditions": "10 µM, 2 h pretreatment, with: LPS 0.5 µg/mL for 22 h", "how to read": "relative to: LPS alone", "endpoint": "inhibition", "result": "89%"}
{"Structure (SMILES)": "Cc1ccc(C(C)C)cc1.[Cl-].[Cl][Ru+].[Ru+].c1ccc(-c2cn(CCCCOc3ccccc3-c3nc4ccccc4s3)nn2)nc1", "target": "calf thymus DNA", "assay": "UV absorption titration", "conditions": "concentration not given", "endpoint": "change in molar absorptivity", "result": "22.5%"}
{"Structure (SMILES)": "Cc1cc(N)c2cc(NC(=O)COCC(=O)Nc3ccc4nc(C)cc(N)c4c3)ccc2n1", "target": "unfractionated heparin", "assay": "heparin neutralization, factor Xa chromogenic", "conditions": "with: heparin 0.2 IU/mL, antithrombin III", "endpoint": "IC50", "result": "2 ± 0.03 µM"}
{"Structure (SMILES)": "CC(C)=CCC/C(C)=C/Cc1c(CCC(=O)c2ccc(O)cc2O)ccc(O)c1O", "target": "mitochondrial complex II-III (bovine heart)", "assay": "succinate-cytochrome c reductase, inhibitor", "endpoint": "IC50", "result": "10.8 ± 0.65 µM"}
{"Structure (SMILES)": "Cc1cccc(C)c1NC(=O)[C@@H]1CCCN1Cc1ccccc1", "target": "Nav1.4 sodium channel", "assay": "vaseline gap voltage clamp", "test system": "Pelophylax lessonae skeletal muscle", "conditions": "30 µM", "endpoint": "shift of steady-state inactivation", "result": "5.7 ± 0.8 mV"}
{"Structure (SMILES)": "Nc1nc2ccc(OC(F)(F)Cl)cc2s1", "target": "MeAIB/glutamine transporter, rat", "assay": "MeAIB uptake", "test system": "hippocampal neurons, rat", "conditions": "20 µM, with: [14C]MeAIB 23.4 µM", "endpoint": "inhibition", "result": "> 90%"}
{"Structure (SMILES)": "[64Cu+2].c1cnc(CNCc2ccc(CN3CCCN4CCNCCCN(CC4)CC3)cc2)nc1", "target": "CXCR4 (human)", "test system": "NOD/SCID mice, U87 xenografts, liver", "conditions": "dose not given, 90 min post-injection, with: 25 mg/kg AMD3465", "how to read": "relative to: non-blocked", "endpoint": "uptake decrease on blocking", "result": "~50% and 41%"}
{"Structure (SMILES)": "CCN(CC)CCCC(C)Nc1cc[n+]([Ru-]([Cl])[Cl])c2cc(Cl)ccc12.c1ccccc1 (stereo not drawn)", "target": "calf thymus DNA", "assay": "thermal denaturation", "conditions": "0.5 equivalents per DNA, 1 h, pH 7.39, 25 °C, 25 mM NaClO4", "endpoint": "delta Tm", "result": "4.4 °C"}
{"Structure (SMILES)": "CCc1nc(-c2ccc(-c3ccc(CCC(N)(CO)COP(=O)(O)O)cc3)cc2)co1 (stereo not drawn)", "target": "human S1P1 receptor", "assay": "flow cytometry", "test system": "CHO expressing human S1P1", "conditions": "100 nM, 1 h", "endpoint": "receptor internalization", "result": "53%"}
{"Structure (SMILES)": "CCCn1c(=O)c2[nH]c(-c3ccc(N(C)C(=O)c4ccc(C(F)(F)F)nc4)nc3)nc2n(CCC)c1=O", "target": "human adenosine A2B receptor", "assay": "radioligand displacement", "test system": "HEK293 membranes", "how to read": "relative to: A2B over other adenosine receptors", "endpoint": "selectivity ratio", "result": "> 400 fold"}
{"Structure (SMILES)": "Cc1ccc(C(C)C)cc1.[C-]#[O+].[C-]#[O+].[C-]#[O+].[Cl-].[Cl-].[Cl-].[Re+].[Ru+2].c1cnc(-c2ncccn2)nc1", "target": "calf thymus DNA", "assay": "ethidium bromide displacement", "endpoint": "Stern-Volmer constant", "result": "14000 M⁻¹"}
{"Structure (SMILES)": "CC(=O)[C@@]1(O)CC[C@H]2[C@@H]3CCC4=CC(=O)CC[C@]4(C)[C@H]3CC[C@@]21C", "target": "GPR126 ECL1 S2 and ECL3 S6", "assay": "conformational change", "endpoint": "BRET signal", "result": "increased"}
{"Structure (SMILES)": "CCN(CC)CCCC(C)NCc1nn2c(-c3ccccc3)nnc2s1 (stereo not drawn)", "target": "c-Myc (human)", "assay": "western blot", "test system": "MV4-11", "conditions": "concentration not given, 6 h", "endpoint": "protein level", "result": "decreased"}
{"Structure (SMILES)": "CC[C@H](C)[C@H](NC(=O)[C@H](CCCNC(=N)N)NC(=O)[C@H](CCC(N)=O)NC(=O)[C@@H](NC(=O)[C@@H](NC(=O)[C@H](CCCNC(=N)N)NC(=O)[C@H](CCCCN)NC(=O)[C@@H](N)Cc1ccccc1)[C@@H](C)CC)C(C)C)C(=O)N[C@@H](CCCCN)C(=O)N[C@@H](CC(=O)O)C(=O)N[C@@H](Cc1ccccc1)C(=O)N[C@@H](CC(C)C)C(=O)N[C@@H](CCCNC(=N)N)C(=O)O", "target": "MRGPRX2 human", "assay": "degranulation, agonist, item: β-hexosaminidase", "test system": "LAD2", "how to read": "relative to: total", "endpoint": "maximal release", "result": "70%"}
{"Structure (SMILES)": "COC[C@@H](C)N[C@H]1CC[C@H](Nc2cc(-c3cccc(NCC4(C#N)CCOCC4)n3)c(Cl)cn2)CC1", "target": "CDK9, human", "assay": "inhibitor, immunoblot, item: MCL-1", "test system": "MIA PaCa-2", "conditions": "concentration not given, 6 h", "endpoint": "protein level", "result": "decreased"}
{"Structure (SMILES)": "COc1ccc2c(c1)c1c(C)c3cnccc3c(C)c1n2CCCN1CCN(C)CC1", "target": "MYC promoter G-quadruplex DNA", "assay": "CD thermal melt", "how to read": "relative to: G-quadruplex without compound", "endpoint": "thermal stabilisation (ΔTm)", "result": "~30 °C"}
{"Structure (SMILES)": "COC(=O)c1cnc(-c2cnccn2)cc1C(=O)OC.COC(=O)c1cnc(-c2cnccn2)cc1C(=O)OC.F[P-](F)(F)(F)(F)F.[Ag+]", "target": "calf thymus DNA", "assay": "ethidium bromide displacement", "endpoint": "binding constant", "result": "1370 M⁻¹"}
{"note": "For quick reference, copied from above:"}
{"Structure (SMILES)": "CC[C@H](C)[C@@H]1NC(=O)[C@H](Cc2ccc(O)cc2)NC(=O)[C@@H](N)CSSC[C@@H](C(=O)N2CCC[C@H]2C(=O)N2CCC[C@H]2C(=O)NCC(N)=O)NC(=O)[C@H](CC(N)=O)NC(=O)[C@H](CCC(N)=O)NC1=O", "target": "vasopressin V1a receptor, Callithrix jacchus", "assay": "calcium mobilization, agonist, FLIPR Fluo-3", "test system": "CHO transfected with receptor", "endpoint": "EC50", "result": "0.00339 µM"}
{"Structure (SMILES)": "CCN(CC)CCCC(C)Nc1cc[n+]([Ru-]([Cl])[Cl])c2cc(Cl)ccc12.c1ccccc1 (stereo not drawn)", "target": "calf thymus DNA", "assay": "thermal denaturation", "conditions": "0.5 equivalents per DNA, 1 h, pH 7.39, 25 °C, 25 mM NaClO4", "endpoint": "delta Tm", "result": "4.4 °C"}
{"Structure (SMILES)": "CCc1nc(-c2ccc(-c3ccc(CCC(N)(CO)COP(=O)(O)O)cc3)cc2)co1 (stereo not drawn)", "target": "human S1P1 receptor", "assay": "flow cytometry", "test system": "CHO expressing human S1P1", "conditions": "100 nM, 1 h", "endpoint": "receptor internalization", "result": "53%"}
